Assay results collected from several papers.
Protocols differ between the studies behind these lines. Several values in a cell are separate wells, animals, samples, runs or records. ± marks the error that the study gave.

The remaining activity of `CSCC[C@H](NC(=O)[C@H](N)Cc1ccccc1)C(=O)N[C@@H](CCCNC(=N)N)C(=O)N[C@@H](Cc1c[nH]c2ccccc12)C(=O)N[C@@H](CO)C(=O)N[C@@H](CCCNC(=N)N)C(=O)N[C@@H](CCCCN)C(=O)N[C@@H](CCSC)C(=O)N1CCC[C@H]1C(=O)N[C@@H](CS)C(=O)N[C@H](C(=O)N[C@@H](CO)C(N)=O)C(C)C` is reported as 46 ± 1% (12G5 competition, SUP-T1 cells; human plasma; concentration not given, 8 h).
`CC(C)C[C@@H]1NC(=O)CNC(=O)[C@H](CC(N)=O)NC(=O)[C@H](CCCNC(=N)N)NC(=O)[C@H]([C@@H](C)O)NC(=O)[C@@H]2CSSC[C@@H]3NC(=O)[C@H]([C@@H](C)O)NC(=O)CNC(=O)CNC(=O)[C@H](C(C)C)NC(=O)[C@@H]4CSSC[C@H](NC(=O)[C@H]([C@@H](C)O)NC(=O)[C@H](CSSC[C@H](NC(=O)[C@H](C(C)C)NC(=O)[C@@H]5CCCN5C1=O)C(=O)NCC(=O)N[C@@H](CCC(=O)O)C(=O)N[C@@H]([C@@H](C)O)C(=O)N4)NC(=O)CNC(=O)[C@@H]1CCCN1C(=O)[C@H]([C@@H](C)O)NC(=O)[C@H](CC(N)=O)NC3=O)C(=O)N[C@@H](CCCCN)C(=O)N[C@@H](Cc1c[nH]c3ccccc13)C(=O)N1CCC[C@H]1C(=O)N[C@@H](C(C)C)C(=O)N2` has a remaining peptide of 79.6 ± 1% (HPLC; ammonium bicarbonate; 180 µM, 14 days, pH 9.0, 25 °C, deamidation stability).
For `CCCCN1CCC(COC(=O)c2ccc(N)c(O[11CH3])c2)CC1`, “remaining parent compound” read 76.9% (rhesus monkey whole blood; 30 min, together with: NaN3 64 mM).
`CSCC[C@H](NC(=O)[C@H](CCCNC(=N)N)NC(=O)[C@H](CCCNC(=N)N)NC(=O)[C@H](CCCCN)NC(=O)[C@H](C)NC(=O)[C@H](CCCNC(=N)N)NC(=O)CNC(=O)[C@@H](NC(=O)CCNC(=O)c1ccc2c(c1)C(=O)OC21c2ccc(O)cc2Oc2cc(O)ccc21)[C@@H](C)O)C(=O)N[C@@H](CSCB(O)O)C(=O)N[C@@H](Cc1ccc(O)cc1)C(=O)N[C@@H](CSCB(O)O)C(=O)N[C@@H](CCCNC(=N)N)C(=O)N[C@@H](CCCNC(=N)N)C(N)=O` gave a remaining peptide of 68.1% and 71.2% and 70.7% (HPLC peak area; 50% human serum; 100 µM, 6 h, pH 7.4, 37 °C; baseline: 0 h).
`CC(C)C[C@@H]1NC(=O)[C@H](CC(N)=O)NC(=O)[C@H](CCCNC(=N)N)NC(=O)[C@H]([C@@H](C)O)NC(=O)[C@@H]2CSSC[C@@H]3NC(=O)[C@H]([C@@H](C)O)NC(=O)CNC(=O)CNC(=O)[C@H](C(C)C)NC(=O)[C@@H]4CSSC[C@H](NC(=O)[C@H](CCCCN)NC(=O)[C@H](CSSC[C@H](NC(=O)[C@H](C(C)C)NC(=O)[C@@H]5CCCN5C(=O)[C@H](CC(C)C)NC1=O)C(=O)NCC(=O)N[C@@H](CCC(=O)O)C(=O)N[C@@H]([C@@H](C)O)C(=O)N4)NC(=O)CNC(=O)[C@@H]1CCCN1C(=O)[C@H]([C@@H](C)O)NC(=O)[C@H](CC(N)=O)NC3=O)C(=O)N[C@@H](CO)C(=O)N[C@@H](Cc1c[nH]c3ccccc13)C(=O)N1CCC[C@H]1C(=O)N[C@@H](C(C)C)C(=O)N2` has a remaining peptide of 99.3 ± 0.6% (HPLC; ammonium bicarbonate; 180 µM, 7 days, pH 9.0, 25 °C, deamidation stability).
The remaining concentration of `O=C/C=C/c1ccccc1` is reported as 320 ± 40 µg/mL (FeSSIF; 2 h, pH 4.92, 37 °C).
For `CC[C@H](C)[C@H](NC(C)=O)C(=O)N[C@@H](CC(C)C)C(=O)N[C@@H](CCCNC(=N)N)C(=O)N[C@@H](Cc1c[nH]c2ccccc12)C(=O)N[C@@H](CO)C(=O)N[C@@H](CCCNC(=N)N)C(=O)N[C@@H](CCCCN)C(=O)N[C@@H](CC(C)C)C(=O)N1CCC[C@H]1C(=O)N[C@@H](CS)C(=O)N[C@H](C(=O)N[C@@H](CO)C(N)=O)C(C)C`, the remaining activity was 67 ± 6% (12G5 competition, SUP-T1 cells; human plasma; concentration not given, 8 h).
`CC[C@@H](C)[C@@H](NC(=O)[C@@H](Cc1ccc(O)cc1)NC(=O)[C@H]1CCCN1C(=O)[C@@H](CCCNC(=N)N)NC(=O)[C@H](N)Cc1c[nH]cn1)C(=O)N[C@H](C)C(=O)N[C@H](Cc1c[nH]cn1)C(=O)N[C@H](CCCNC(=N)N)C(=O)N[C@@H](C(=O)N[C@H](Cc1ccc(O)cc1)C(=O)N[C@H](CO)C(=O)N[C@H](Cc1ccccc1)C(N)=O)C(C)C` has a remaining compound of 99.8% and 100% (10% human serum; 0 h).
`C/C(=C\CCP(=O)(OCOC(=O)C1CCOCC1)Oc1ccc(C(C)C)cc1)CO` (stereo not drawn) has a remaining compound of 0% (50% CD1 mouse plasma; 100 µM, 2 h, pH 7.5, 37 °C).
For `CC(C)C[C@@H]1NC(=O)CNC(=O)[C@H](CC(N)=O)NC(=O)[C@H](CCCNC(=N)N)NC(=O)[C@H]([C@@H](C)O)NC(=O)[C@@H]2CSSC[C@@H]3NC(=O)[C@H]([C@@H](C)O)NC(=O)CNC(=O)CNC(=O)[C@H](C(C)C)NC(=O)[C@@H]4CSSC[C@H](NC(=O)[C@H]([C@@H](C)O)NC(=O)[C@H](CSSC[C@H](NC(=O)[C@H](C(C)C)NC(=O)[C@@H]5CCCN5C1=O)C(=O)NCC(=O)N[C@@H](CCC(=O)O)C(=O)N[C@@H]([C@@H](C)O)C(=O)N4)NC(=O)CNC(=O)[C@@H]1CCCN1C(=O)[C@H]([C@@H](C)O)NC(=O)[C@H](CCCCN)NC3=O)C(=O)N[C@@H](CO)C(=O)N[C@@H](Cc1c[nH]c3ccccc13)C(=O)N1CCC[C@H]1C(=O)N[C@@H](C(C)C)C(=O)N2`, the remaining peptide was 99 ± 0.2% (HPLC; water; 180 µM, 14 days, 37 °C, deamidation stability).
`CC(C)[C@@H]1NC(=O)CNC(=O)[C@H](CC(N)=O)NC(=O)[C@H](CCCNC(=N)N)NC(=O)[C@H](Cc2ccc(O)cc2)NC(=O)[C@H](C(C)C)NC(=O)[C@@H](NC(=O)[C@@H](NC(=O)[C@H](CC(N)=O)NC(=O)[C@H](Cc2c[nH]c3ccccc23)NC(=O)[C@H](C)NC(=O)[C@H](Cc2ccccc2)NC(=O)CN)C(C)C)CSSC[C@@H](C(=O)N[C@@H](Cc2cnc[nH]2)C(=O)N[C@@H](CCCNC(=N)N)C(=O)N[C@@H](CCCNC(=N)N)C(=O)N[C@@H](C)C(=O)N[C@@H](CC(N)=O)C(N)=O)NC(=O)[C@H](C(C)C)NC(=O)[C@H](CCCNC(=N)N)NC1=O` gave a remaining peptide of 36.9% and 43.9% and 40.5% (HPLC; mouse kidney homogenate; 2560 µM, 4.00 h, 37 °C, 50 mg/mL tissue).
`CC[C@H](C)[C@H](NC(=O)[C@H](CCCCN)NC(=O)[C@H](CCCCN)NC(=O)CNC(=O)[C@H](CCCCN)NC(=O)[C@H](CC(C)C)NC(=O)[C@H](CCCCN)NC(=O)[C@H](CCCNC(=N)N)NC(=O)[C@@H](NC(=O)[C@H](CC(C)C)NC(=O)[C@H](CCCNC(=N)N)NC(=O)[C@@H](N)CCCNC(=N)N)[C@@H](C)CC)C(=O)N[C@@H](Cc1ccc(O)cc1)C(=O)N[C@@H](CC(C)C)C(=O)N[C@@H](Cc1ccc(O)cc1)C(=O)N[C@@H](Cc1ccccc1)C(=O)N[C@@H](CCCCN)C(=O)N[C@@H](CC(C)C)C(=O)N[C@@H](CCC(N)=O)C(=O)N[C@@H](CC(C)C)C(=O)N[C@@H](CC(C)C)C(=O)N[C@@H](CCCCN)C(=O)N[C@@H](CCCCN)C(N)=O`: “remaining intact peptide” over 90% (LC-MS; 25% human serum; 200 µM, 12 h, 37 °C).
For `CC(C)C[C@@H]1NC(=O)CNC(=O)[C@H](CC(N)=O)NC(=O)[C@H](CCCNC(=N)N)NC(=O)[C@H]([C@@H](C)O)NC(=O)[C@@H]2CSSC[C@@H]3NC(=O)[C@H](CCCCN)NC(=O)CNC(=O)CNC(=O)[C@H](C(C)C)NC(=O)[C@@H]4CSSC[C@H](NC(=O)[C@H]([C@@H](C)O)NC(=O)[C@H](CSSC[C@H](NC(=O)[C@H](C(C)C)NC(=O)[C@@H]5CCCN5C1=O)C(=O)NCC(=O)N[C@@H](CCC(=O)O)C(=O)N[C@@H]([C@@H](C)O)C(=O)N4)NC(=O)CNC(=O)[C@@H]1CCCN1C(=O)[C@H]([C@@H](C)O)NC(=O)[C@H](CC(N)=O)NC3=O)C(=O)N[C@@H](CO)C(=O)N[C@@H](Cc1c[nH]c3ccccc13)C(=O)N1CCC[C@H]1C(=O)N[C@@H](C(C)C)C(=O)N2`, the remaining peptide was 99.3 ± 1% (HPLC; water; 180 µM, 14 days, 37 °C, deamidation stability).
For `CC[C@@H](C)[C@@H](NC(=O)[C@@H](Cc1ccc(O)cc1)NC(=O)[C@H]1CCCN1C(=O)[C@@H](CCCNC(=N)N)NC(=O)[C@H](N)Cc1c[nH]cn1)C(=O)N[C@H](C)C(=O)N[C@H](Cc1c[nH]cn1)C(=O)N[C@H](CCCNC(=N)N)C(=O)N[C@H](CCCCNC(=O)c1cccc(S(=O)(=O)F)c1)C(=O)N[C@H](Cc1ccc(O)cc1)C(=O)N[C@H](CO)C(=O)N[C@H](Cc1ccccc1)C(N)=O`, the remaining compound was 112% and 113% (10% human serum; 0.5 h).
With `CSCC[C@H](NC(=O)[C@H](CCCCN)NC(=O)[C@H](CCCNC(=N)N)NC(=O)[C@H](CO)NC(=O)[C@H](Cc1c[nH]c2ccccc12)NC(=O)[C@H](CCCNC(=N)N)NC(=O)[C@H](CC(C)C)NC(=O)[C@@H](CO)NC(C)=O)C(=O)N1CCC[C@H]1C(=O)N[C@@H](CS)C(=O)N[C@H](C(=O)N[C@@H](CO)C(N)=O)C(C)C` the remaining activity was 65 ± 4% (12G5 competition, SUP-T1 cells; human plasma; 20 µM, 2 h, 37 °C).

Repeated from above:
For `CC(C)C[C@@H]1NC(=O)CNC(=O)[C@H](CC(N)=O)NC(=O)[C@H](CCCNC(=N)N)NC(=O)[C@H]([C@@H](C)O)NC(=O)[C@@H]2CSSC[C@@H]3NC(=O)[C@H](CCCCN)NC(=O)CNC(=O)CNC(=O)[C@H](C(C)C)NC(=O)[C@@H]4CSSC[C@H](NC(=O)[C@H]([C@@H](C)O)NC(=O)[C@H](CSSC[C@H](NC(=O)[C@H](C(C)C)NC(=O)[C@@H]5CCCN5C1=O)C(=O)NCC(=O)N[C@@H](CCC(=O)O)C(=O)N[C@@H]([C@@H](C)O)C(=O)N4)NC(=O)CNC(=O)[C@@H]1CCCN1C(=O)[C@H]([C@@H](C)O)NC(=O)[C@H](CC(N)=O)NC3=O)C(=O)N[C@@H](CO)C(=O)N[C@@H](Cc1c[nH]c3ccccc13)C(=O)N1CCC[C@H]1C(=O)N[C@@H](C(C)C)C(=O)N2`, the remaining peptide was 99.3 ± 1% (HPLC; water; 180 µM, 14 days, 37 °C, deamidation stability).
